Results from different studies.
Every numbered part comes from another study and shows a few of its results, in no order. ± marks the error that the study gave.

Set 1 — observed: binding; concentration: 0.1 µM
Target: Tyrosine-protein kinase ABL1, phosphorylated (ABL1, Homo sapiens, UniProt P00519, F317I)
Sequence of UniProt P00519 (whole entry, unmodified, looked up): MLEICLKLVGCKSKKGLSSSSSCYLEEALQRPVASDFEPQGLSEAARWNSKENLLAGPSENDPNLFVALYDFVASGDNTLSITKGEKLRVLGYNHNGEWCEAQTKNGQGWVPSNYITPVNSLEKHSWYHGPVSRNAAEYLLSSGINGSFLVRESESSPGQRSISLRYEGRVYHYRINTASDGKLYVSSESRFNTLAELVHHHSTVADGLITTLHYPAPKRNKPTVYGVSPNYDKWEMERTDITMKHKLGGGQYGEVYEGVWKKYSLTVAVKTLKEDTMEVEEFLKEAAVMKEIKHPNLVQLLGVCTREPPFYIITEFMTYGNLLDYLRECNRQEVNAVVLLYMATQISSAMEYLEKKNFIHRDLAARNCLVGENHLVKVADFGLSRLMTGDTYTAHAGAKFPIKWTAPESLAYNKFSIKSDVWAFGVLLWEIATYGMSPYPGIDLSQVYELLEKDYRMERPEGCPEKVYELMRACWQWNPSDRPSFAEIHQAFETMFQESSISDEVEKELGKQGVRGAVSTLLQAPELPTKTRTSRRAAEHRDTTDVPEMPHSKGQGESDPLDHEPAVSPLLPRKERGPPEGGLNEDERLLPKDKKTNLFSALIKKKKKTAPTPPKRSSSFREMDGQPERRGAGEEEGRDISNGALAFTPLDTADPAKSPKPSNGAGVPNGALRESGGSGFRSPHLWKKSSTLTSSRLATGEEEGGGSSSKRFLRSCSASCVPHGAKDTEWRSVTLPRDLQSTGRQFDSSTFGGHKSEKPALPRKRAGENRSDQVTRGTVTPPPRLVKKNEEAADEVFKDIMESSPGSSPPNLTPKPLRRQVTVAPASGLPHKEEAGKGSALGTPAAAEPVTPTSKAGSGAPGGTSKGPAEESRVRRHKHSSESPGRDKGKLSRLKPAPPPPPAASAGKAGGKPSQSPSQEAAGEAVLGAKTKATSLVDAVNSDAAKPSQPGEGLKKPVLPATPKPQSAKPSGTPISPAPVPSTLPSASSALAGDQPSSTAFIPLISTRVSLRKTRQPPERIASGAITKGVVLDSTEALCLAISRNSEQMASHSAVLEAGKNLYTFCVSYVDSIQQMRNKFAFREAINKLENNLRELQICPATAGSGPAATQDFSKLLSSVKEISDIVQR
Structure (SMILES) | remaining binding [%]
Cc1cc(Nc2nccc(C)n2)cc(-c2cnc([C@@]3(O)CC[C@H](C(=O)O)C(C)(C)C3)s2)c1 | 100
Cc1ccc(-c2cnc([C@@]3(O)CC[C@H](C(=O)O)C(C)(C)C3)s2)cc1Nc1cccc(C(F)(F)F)n1 | 80.1
C[C@@H](NC(=O)Nc1cc2[nH]ncc2c(CO)n1)c1ccccc1 | 80.2

Set 2 — cell line: HaCaT; concentration: 100 µM; time: 18 h
Structure (SMILES) | viability [%]
CS(=O)(=O)Nc1ccc([N+](=O)[O-])cc1Oc1ccccc1 | 93.7
O=C1O[C@H]([C@@H](O)CO)C(O)=C1O | 115
CO[C@H]1/C=C/O[C@@]2(C)Oc3c(C)c(O)c4c(O)c(c5c(nc6cc(C)ccn65)c4c3C2=O)NC(=O)/C(C)=C\C=C\[C@H](C)[C@H](O)[C@@H](C)[C@@H](O)[C@@H](C)[C@H](OC(C)=O)[C@@H]1C | 64.1
CCOC(=O)c1ccc(C#Cc2ccc3c(c2)C(C)(C)CCS3)nc1 | 64.7
CC(=O)N(O)CCCCCNC(=O)CCC(=O)N(O)CCCCCNC(=O)CCC(=O)N(O)CCCCCN | 114

Set 3 — organism: Sarcocystis neurona; observed: parasite growth; concentration: 10 µM; setting: first screen; baseline: untreated
SMILES | log2 fold change
COc1ccc2[n-]c([S+]([O-])Cc3ncc(C)c(OC)c3C)nc2c1.COc1ccc2[n-]c([S+]([O-])Cc3ncc(C)c(OC)c3C)nc2c1.[Mg+2] (centres unmarked) | -0.22
NS(=O)(=O)c1cc2c(cc1C(F)(F)F)NC(Cc1ccccc1)NS2(=O)=O (centres unmarked) | 0.12
CC(C)c1ccc2c(c1)c(SC(C)(C)C)c(CC(C)(C)C(=O)O)n2Cc1ccc(Cl)cc1 | -0.23
COC(=O)C1=C(C)NC(C)=C(C(=O)O[C@@H]2CCCN(Cc3ccccc3)C2)[C@@H]1c1cccc([N+](=O)[O-])c1.Cl (racemic) | -0.26
CC1CCN(CCCC(=O)c2ccc(F)cc2)CC1.Cl | 0.1

Set 4 — observed: kinase activity
Compound: COc1cc(C(=O)N2CCC(N3CCN(C)CC3)CC2)ccc1Nc1ncc2c(n1)N(C)c1ccccc1C(=O)N2C
target | setting | remaining activity
CAMK1 | 1 µM | 75 ± 3%
DYRK1A | 10 µM | 95 ± 1%
JNK2 | 10 µM | 98 ± 2%
p38b MAPK | 10 µM | 45 ± 1%
EPH-A4 | 10 µM | 94 ± 5%
AMPK | 1 µM | 70 ± 7%
CK1 | 10 µM | 85 ± 1%

A few entries again (set 4):
target | setting | remaining activity
AMPK | 1 µM | 70 ± 7%
